Experimental data collected from several papers.
Organism: Acinetobacter baumannii

The MIC of `CC[C@H](C)[C@H](NC(=O)[C@@H](CCCNC(=N)N)NC(=O)[C@H](CCCNC(=N)N)NC(=O)[C@H](Cc1c[nH]cn1)NC(=O)[C@H](Cc1c[nH]c2ccccc12)NC(=O)[C@H](CCCNC(=N)N)NC(=O)[C@@H]1CCCN1C(=O)[C@H](CCCNC(=N)N)NC(=O)[C@@H]1CCCN1C(=O)[C@H](CC(C)C)NC(=O)[C@H](Cc1ccc(O)cc1)NC(=O)[C@@H]1CCCN1C(=O)[C@@H]1CCCN1C(=O)[C@H](CCCCN)NC(=O)[C@H](CC(=O)O)NC(=O)[C@@H](N)C(C)C)C(=O)N[C@@H](Cc1ccc(O)cc1)C(=O)N[C@@H](CC(N)=O)C(=O)N[C@H](CCCNC(=N)N)C(N)=O` is reported as 64 µg/mL (broth microdilution; DSM 30008; 18 h, 37 °C, 25% MHB2).
With `CN[C@H](CC(C)C)C(=O)N[C@H]1C(=O)N[C@@H](CC(N)=O)C(=O)N[C@H]2C(=O)N[C@H]3C(=O)N[C@H](C(=O)N[C@H](C(=O)NCC(N)=O)c4cc(O)cc(O)c4-c4cc3ccc4O)[C@H](O)c3ccc(c(Cl)c3)Oc3cc2cc(c3O[C@@H]2O[C@H](CO)[C@@H](O)[C@H](O)[C@H]2O[C@H]2C[C@](C)(NCc3ccc(OCc4cn(CC(=O)N[C@H](C(=O)N[C@@H](CCN)C(=O)N[C@H]5CCNC(=O)[C@H]([C@@H](C)O)NC(=O)[C@H](CCN)NC(=O)[C@H](CCN)NC(=O)[C@H](CC(C)C)NC(=O)[C@@H](CC(C)C)NC(=O)[C@H](CCN)NC5=O)[C@@H](C)O)nn4)c(OC)c3)[C@H](O)[C@H](C)O2)Oc2ccc(cc2Cl)[C@H]1O` the MIC was 6 µM (broth microdilution; BAA-747).
`CC[C@H](C)[C@H](NC(=O)[C@H](Cc1c[nH]c2ccccc12)NC(=O)[C@H](CCCNC(=N)N)NC(=O)[C@@H]1CCCN1C(=O)[C@H](CCCNC(=N)N)NC(=O)[C@@H]1CCCN1C(=O)[C@H](CC(C)C)NC(=O)[C@H](Cc1ccc(O)cc1)NC(=O)[C@@H]1CCCN1C(=O)[C@@H]1CCCN1C(=O)[C@H](CCCCN)NC(=O)[C@H](CC(=O)O)NC(=O)[C@@H](N)C(C)C)C(=O)N[C@@H](CCCNC(=N)N)C(=O)N[C@H](CCCNC(=N)N)C(=O)N[C@H](C(=O)N[C@@H](Cc1ccc(O)cc1)C(=O)N[C@@H](CC(N)=O)C(=O)N[C@H](CCCNC(=N)N)C(N)=O)[C@@H](C)CC` gave an MIC of 16 µg/mL (broth microdilution; DSM 30008; 18 h, 37 °C, 25% MHB2).
For `CC(C)C[C@@H]1NC(=O)[C@@H](CC(C)C)NC(=O)[C@H](CCN)NC(=O)[C@@H](NC(=O)[C@H](CCN)NC(=O)[C@@H](NC(=O)CCOCCOCCOCCN=[N+]=[N-])[C@@H](C)O)CCNC(=O)[C@H]([C@@H](C)O)NC(=O)[C@H](CCN)NC(=O)[C@H](CCN)NC1=O`, the MIC was over 111 µM (broth microdilution; BAA-747).
`CC[C@H](C)[C@H](NC(=O)[C@@H](CCCNC(=N)N)NC(=O)[C@H](CCCNC(=N)N)NC(=O)[C@@H]1CCCN1C(=O)[C@@H]1CCCN1C(=O)[C@H](CCCNC(=N)N)NC(=O)[C@@H]1CCCN1C(=O)[C@H](CCCNC(=N)N)NC(=O)[C@@H]1CCCN1C(=O)[C@H](CC(C)C)NC(=O)[C@H](Cc1ccc(O)cc1)NC(=O)[C@@H]1CCCN1C(=O)[C@H](Cc1ccccc1)NC(=O)[C@H](CCCCN)NC(=O)[C@H](CC(=O)O)NC(=O)[C@@H](N)C(C)C)C(=O)N[C@@H](Cc1ccc(O)cc1)C(=O)N[C@@H](CC(N)=O)C(=O)N[C@H](CCCNC(=N)N)C(N)=O` gave an MIC of 32 µg/mL (broth microdilution; DSM 30008; 18 h, 37 °C, 25% MHB2).
The MIC of `CCCCCCCC(=O)N[C@@H](CCN)C(=O)N[C@H](C(=O)N[C@@H](CCN)C(=O)N[C@H]1CCNC(=O)[C@H](C)NC(=O)[C@H](CCN)NC(=O)[C@H](CCN)NC(=O)[C@H](CC(C)C)NC(=O)[C@@H](Cc2ccccc2)NC(=O)[C@H](CCN)NC1=O)[C@@H](C)O` is reported as 1 µg/mL (CLSI broth microdilution; 5075, CAMHB; 20 h, 37 °C).
For `CC[C@H](C)[C@H](NC(=O)[C@@H](CCCNC(=N)N)NC(=O)[C@H](CCCNC(=N)N)NC(=O)[C@@H]1CCCN1C(=O)[C@@H]1CCCN1C(=O)[C@H](CCCNC(=N)N)NC(=O)[C@@H]1CCCN1C(=O)[C@H](CCCNC(=N)N)NC(=O)[C@@H]1CCCN1C(=O)[C@H](CC(C)C)NC(=O)[C@H](Cc1cc(I)c(O)c(I)c1)NC(=O)[C@@H]1CCCN1C(=O)[C@@H]1CCCN1C(=O)[C@H](CCCCN)NC(=O)[C@H](CC(=O)O)NC(=O)[C@@H](N)C(C)C)C(=O)N[C@@H](Cc1ccc(O)cc1)C(=O)N[C@@H](CC(N)=O)C(=O)N[C@H](CCCNC(=N)N)C(N)=O`, the MIC was 128 µg/mL (broth microdilution; DSM 30008; 18 h, 37 °C, 25% MHB2).
For `CC[C@H](C)[C@H](NC(=O)[C@H](CCCNC(=N)N)NC(=O)[C@@H](NC(=O)[C@@H](NC(=O)[C@H](CCCNC(=N)N)NC(=O)[C@H](CCCCN)NC(=O)[C@H](Cc1ccccc1)NC(=O)[C@H](CCCNC(=N)N)NC(=O)[C@H](CCCCN)NC(=O)[C@@H](NC(=O)[C@@H](N)CCCCN)[C@@H](C)CC)[C@@H](C)CC)C(C)C)C(=O)N[C@@H](CCCCN)C(=O)N[C@@H](Cc1ccccc1)C(=O)N[C@@H](CC(C)C)C(=O)N[C@@H](CCCNC(=N)N)C(=O)N[C@H](C(=O)N[C@H](C(=O)N[C@@H](CCCNC(=N)N)C(=O)N[C@@H](CCCNC(=N)N)C(N)=O)C(C)C)C(C)C`, the MIC was 1.25 µg/mL (broth microdilution; 18).
`CCCCCCCC(=O)N[C@@H](CCN)C(=O)N[C@@H](C)C(=O)N[C@@H](CCN)C(=O)N[C@H]1CCNC(=O)[C@H]([C@@H](C)O)NC(=O)[C@H](CCN)NC(=O)[C@H](CCN)NC(=O)[C@H](CC(C)C)NC(=O)[C@@H](Cc2ccccc2)NC(=O)[C@H](CCN)NC1=O` gave an MIC of 256 µg/mL (broth microdilution; ATCC 17978; 20 h, 37 °C).
`CCCCCCCC(=O)N[C@@H](CCN)C(=O)N[C@H](C(=O)N[C@@H](CCN)C(=O)N[C@H]1CCNC(=O)[C@H]([C@@H](C)O)NC(=O)[C@H](CCN)NC(=O)[C@H](CCN)NC(=O)[C@H](Cc2ccc(Cl)cc2)NC(=O)[C@@H](CC(C)C)NC(=O)[C@H](CCN)NC1=O)[C@@H](C)O` has an MIC of 0.125 to 0.5 µg/mL (broth microdilution; ATCC 19606, colistin-susceptible).
`CC[C@H](C)[C@H](NC(=O)[C@H](Cc1c[nH]c2ccccc12)NC(=O)[C@H](Cc1ccc(O)cc1)NC(=O)[C@H](CCCCN)NC(=O)[C@H](CC(C)C)NC(=O)[C@H](CO)NC(=O)[C@@H](N)Cc1ccccc1)C(=O)N[C@@H](CCCNC(=N)N)C(=O)N[C@@H](Cc1ccc(O)cc1)C(=O)N[C@@H](CCCCN)C(=O)N[C@@H](CCCNC(=N)N)C(=O)N[C@@H](CCC(N)=O)C(=O)NCC(=O)N[C@@H](C)C(=O)N[C@@H](C)C(=O)N[C@@H](CCCNC(=N)N)C(=O)N[C@@H](Cc1ccccc1)C(N)=O` gave an MIC of 6.3 µM (broth dilution; ATCC 19606).
`CC(=CC(C)CCCCC(=O)O)C1OC2C=CC1OC(=O)C=CC=CC=CC1OC3CC1OC(C=CCC1OC(CC(O)C1C)C(O)C(O)C=CCCC=CC2)C3C` (stereo not drawn) has an MIC of over 20 µM (microbial growth; DSM30007).
With `CC[C@H](C)[C@H](NC(=O)CNC(=O)[C@H](CC(=O)O)NC(=O)[C@H](CCCNC(=N)N)NC(=O)[C@@H](NC(=O)[C@H](Cc1c[nH]cn1)NC(=O)[C@H](CCC(N)=O)NC(=O)CNC(=O)[C@@H](NC(=O)[C@H](CCCNC(=N)N)NC(=O)[C@H](CCC(=O)O)NC(=O)[C@@H](NC(=O)[C@H](CCCCN)NC(=O)[C@H](CCCCN)NC(=O)[C@H](Cc1ccccc1)NC(=O)[C@@H](NC(=O)[C@H](CCCCN)NC(=O)[C@H](Cc1c[nH]c2ccccc12)NC(=O)[C@@H](N)CCCCN)[C@@H](C)CC)[C@@H](C)CC)C(C)C)C(C)C)C(=O)N[C@H](C(=O)N[C@@H](CCCCN)C(=O)N[C@@H](C)C(=O)NCC(=O)N[C@@H](CO)C(=O)N[C@@H](C)C(=O)N[C@H](C(=O)N[C@@H](CCC(N)=O)C(=O)N[C@H](C(=O)N[C@H](C(=O)NCC(=O)N[C@@H](CCC(N)=O)C(=O)N[C@@H](C)C(=O)N[C@@H](C)C(=O)N[C@@H](C)C(=O)N[C@H](C(=O)N[C@@H](C)C(=O)N[C@@H](CCCCN)C(N)=O)[C@@H](C)CC)C(C)C)C(C)C)C(C)C)[C@@H](C)CC` the MIC was at most 0.062 µM (bacterial growth, broth microdilution; cation-adjusted Mueller Hinton broth; 18 h, 37 °C).
With `CCCCCCCC(=O)N[C@@H](CCN)C(=O)N[C@H](C(=O)N[C@@H](CCN)C(=O)N[C@H]1CCNC(=O)[C@H]([C@@H](C)O)NC(=O)[C@H](CCN)NC(=O)[C@H](CCN)NC(=O)[C@H](CC(C)C)NC(=O)[C@@H](Cc2ccccc2F)NC(=O)[C@H](CCN)NC1=O)[C@@H](C)O` the MIC was 0.5 to 1 µg/mL (broth microdilution; colistin-resistant isolates).
`CCn1c(-c2ccc(F)cc2)c(-c2ccc(F)cc2)n(CCOC)c1=[Se]` gave an MIC of over 40 µM (broth microdilution; carbapenem-resistant; 24 h).
With `CN[C@@H]1[C@H](O)[C@H](NC)[C@H]2O[C@]3(O)[C@H](O[C@@H]2[C@H]1O)O[C@H](C)C[C@H]3NC(=O)Cc1ccccn1` the MIC was over 200 µg/mL (microbial growth, broth dilution; ATCC19606).
With `CCCCCCCC(=O)N[C@@H](CCN)C(=O)N[C@H](C(=O)N[C@@H](CCN)C(=O)N[C@H]1CCNC(=O)[C@H]([C@@H](C)O)NC(=O)[C@H](CCN)NC(=O)[C@H](CCN)NC(=O)[C@H](CCCc2ccccc2)NC(=O)[C@@H](Cc2ccccc2)NC(=O)[C@H](CCN)NC1=O)[C@@H](C)O` the MIC was 0.125 to 0.5 µg/mL (broth microdilution; ATCC 19606, colistin-susceptible).
For `Oc1c(Br)cc(Br)c2nc3cc(Cl)ccc3nc12`, the MIC was over 100 µM (OD600; 19606).
